Experimental data gathered from unrelated publications.
Several values in a cell are separate wells, animals, samples, runs or records. ± marks the error that the study gave.
TOP2A: DNA topoisomerase 2-alpha (TOP2A, Homo sapiens, UniProt P11388)
Sequence of UniProt P11388 (whole entry, looked up): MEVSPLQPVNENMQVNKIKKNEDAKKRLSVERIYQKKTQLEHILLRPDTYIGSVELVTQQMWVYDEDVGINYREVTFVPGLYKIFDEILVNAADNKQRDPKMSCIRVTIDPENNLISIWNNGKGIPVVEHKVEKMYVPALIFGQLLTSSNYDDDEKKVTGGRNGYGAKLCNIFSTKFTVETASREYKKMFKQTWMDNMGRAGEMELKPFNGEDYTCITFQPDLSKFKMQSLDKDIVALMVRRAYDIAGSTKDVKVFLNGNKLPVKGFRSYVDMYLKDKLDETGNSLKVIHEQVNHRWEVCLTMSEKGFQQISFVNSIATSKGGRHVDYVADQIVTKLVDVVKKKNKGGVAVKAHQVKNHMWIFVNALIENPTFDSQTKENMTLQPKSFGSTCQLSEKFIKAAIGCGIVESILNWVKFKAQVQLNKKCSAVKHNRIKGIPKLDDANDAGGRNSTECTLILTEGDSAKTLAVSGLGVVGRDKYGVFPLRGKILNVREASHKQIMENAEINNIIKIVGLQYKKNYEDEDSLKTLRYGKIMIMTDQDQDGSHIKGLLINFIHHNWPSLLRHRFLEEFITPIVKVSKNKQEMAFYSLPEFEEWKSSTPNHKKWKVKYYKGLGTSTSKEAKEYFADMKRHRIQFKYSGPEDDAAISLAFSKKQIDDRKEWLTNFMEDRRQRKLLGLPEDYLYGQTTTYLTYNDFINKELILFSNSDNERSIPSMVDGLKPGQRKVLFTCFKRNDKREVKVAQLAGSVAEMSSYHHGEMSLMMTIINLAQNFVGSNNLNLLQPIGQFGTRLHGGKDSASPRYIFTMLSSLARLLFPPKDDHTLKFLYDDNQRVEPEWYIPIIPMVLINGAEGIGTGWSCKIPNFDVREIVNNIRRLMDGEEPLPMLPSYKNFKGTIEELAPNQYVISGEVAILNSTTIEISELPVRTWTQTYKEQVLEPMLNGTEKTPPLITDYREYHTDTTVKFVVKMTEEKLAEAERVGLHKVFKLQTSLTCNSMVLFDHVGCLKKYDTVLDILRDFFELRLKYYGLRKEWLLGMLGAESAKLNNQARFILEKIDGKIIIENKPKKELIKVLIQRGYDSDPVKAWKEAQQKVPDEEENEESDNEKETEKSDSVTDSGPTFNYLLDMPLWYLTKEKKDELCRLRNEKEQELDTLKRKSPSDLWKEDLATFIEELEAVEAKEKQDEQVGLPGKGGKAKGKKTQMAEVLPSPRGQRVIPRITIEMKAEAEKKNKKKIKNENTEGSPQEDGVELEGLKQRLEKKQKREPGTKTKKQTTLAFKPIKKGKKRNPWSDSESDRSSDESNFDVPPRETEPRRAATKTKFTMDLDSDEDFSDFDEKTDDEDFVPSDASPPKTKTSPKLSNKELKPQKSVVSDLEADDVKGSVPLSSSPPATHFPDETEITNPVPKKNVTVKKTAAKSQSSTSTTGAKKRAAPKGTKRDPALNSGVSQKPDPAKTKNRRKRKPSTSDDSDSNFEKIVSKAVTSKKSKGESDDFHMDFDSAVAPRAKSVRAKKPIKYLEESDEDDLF
T1: G-quadruplex RNA (Caenorhabditis elegans); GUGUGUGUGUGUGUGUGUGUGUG
Sequence of UniProt Q16774 (whole entry, looked up): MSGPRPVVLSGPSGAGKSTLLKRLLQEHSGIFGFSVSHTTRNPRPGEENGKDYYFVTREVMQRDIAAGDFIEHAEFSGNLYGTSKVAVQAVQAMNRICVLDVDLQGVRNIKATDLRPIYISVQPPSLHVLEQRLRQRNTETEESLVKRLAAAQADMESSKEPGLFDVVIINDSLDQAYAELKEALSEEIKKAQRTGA
Sequence of UniProt Q8NFU1 (whole entry, looked up): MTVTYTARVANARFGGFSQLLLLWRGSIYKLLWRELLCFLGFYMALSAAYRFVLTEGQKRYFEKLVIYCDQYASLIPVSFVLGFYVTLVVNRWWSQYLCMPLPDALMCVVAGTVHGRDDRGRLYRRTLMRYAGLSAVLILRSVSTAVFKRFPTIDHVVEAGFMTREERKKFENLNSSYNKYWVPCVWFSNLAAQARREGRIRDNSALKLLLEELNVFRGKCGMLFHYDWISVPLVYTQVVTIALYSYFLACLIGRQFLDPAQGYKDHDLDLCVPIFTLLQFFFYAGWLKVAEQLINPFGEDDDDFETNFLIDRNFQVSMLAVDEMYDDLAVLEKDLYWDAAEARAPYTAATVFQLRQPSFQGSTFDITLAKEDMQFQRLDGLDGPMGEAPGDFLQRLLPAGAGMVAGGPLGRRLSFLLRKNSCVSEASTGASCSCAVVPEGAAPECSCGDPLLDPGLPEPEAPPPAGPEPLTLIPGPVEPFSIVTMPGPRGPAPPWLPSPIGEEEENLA
Sequence of UniProt P00367 (whole entry, looked up): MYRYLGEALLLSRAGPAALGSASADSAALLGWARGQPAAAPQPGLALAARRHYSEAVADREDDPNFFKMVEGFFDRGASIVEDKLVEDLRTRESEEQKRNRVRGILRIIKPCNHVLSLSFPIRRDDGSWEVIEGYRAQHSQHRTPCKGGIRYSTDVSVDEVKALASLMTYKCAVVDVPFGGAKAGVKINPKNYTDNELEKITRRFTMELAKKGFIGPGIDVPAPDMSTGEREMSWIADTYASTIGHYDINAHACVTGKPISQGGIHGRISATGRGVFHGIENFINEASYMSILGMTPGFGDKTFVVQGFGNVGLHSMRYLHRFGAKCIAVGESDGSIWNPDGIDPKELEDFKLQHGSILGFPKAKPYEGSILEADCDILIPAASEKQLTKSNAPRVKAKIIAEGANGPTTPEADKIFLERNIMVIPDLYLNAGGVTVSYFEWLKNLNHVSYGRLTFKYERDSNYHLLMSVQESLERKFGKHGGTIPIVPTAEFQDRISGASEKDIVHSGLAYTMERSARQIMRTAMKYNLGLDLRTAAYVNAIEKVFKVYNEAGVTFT
Sequence of UniProt P21980 (whole entry, looked up): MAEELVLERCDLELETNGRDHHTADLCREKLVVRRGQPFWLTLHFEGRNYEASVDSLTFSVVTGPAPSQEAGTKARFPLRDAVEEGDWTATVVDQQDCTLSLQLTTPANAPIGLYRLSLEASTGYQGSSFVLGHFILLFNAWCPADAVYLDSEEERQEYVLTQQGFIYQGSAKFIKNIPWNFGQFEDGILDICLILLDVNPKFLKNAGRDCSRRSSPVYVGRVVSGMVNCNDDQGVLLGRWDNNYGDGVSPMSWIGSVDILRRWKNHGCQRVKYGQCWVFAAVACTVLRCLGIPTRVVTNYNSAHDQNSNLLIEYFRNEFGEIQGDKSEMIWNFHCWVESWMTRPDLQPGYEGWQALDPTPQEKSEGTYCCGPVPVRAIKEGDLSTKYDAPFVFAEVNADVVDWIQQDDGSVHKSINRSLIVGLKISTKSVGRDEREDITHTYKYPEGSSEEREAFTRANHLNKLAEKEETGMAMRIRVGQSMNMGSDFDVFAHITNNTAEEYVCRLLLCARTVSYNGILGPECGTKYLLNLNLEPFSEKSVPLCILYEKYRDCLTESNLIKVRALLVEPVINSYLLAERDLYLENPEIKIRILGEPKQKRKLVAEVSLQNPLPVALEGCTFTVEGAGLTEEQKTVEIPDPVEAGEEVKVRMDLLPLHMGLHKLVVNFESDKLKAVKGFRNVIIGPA
Sequence of UniProt P51575 (whole entry, unmodified, looked up): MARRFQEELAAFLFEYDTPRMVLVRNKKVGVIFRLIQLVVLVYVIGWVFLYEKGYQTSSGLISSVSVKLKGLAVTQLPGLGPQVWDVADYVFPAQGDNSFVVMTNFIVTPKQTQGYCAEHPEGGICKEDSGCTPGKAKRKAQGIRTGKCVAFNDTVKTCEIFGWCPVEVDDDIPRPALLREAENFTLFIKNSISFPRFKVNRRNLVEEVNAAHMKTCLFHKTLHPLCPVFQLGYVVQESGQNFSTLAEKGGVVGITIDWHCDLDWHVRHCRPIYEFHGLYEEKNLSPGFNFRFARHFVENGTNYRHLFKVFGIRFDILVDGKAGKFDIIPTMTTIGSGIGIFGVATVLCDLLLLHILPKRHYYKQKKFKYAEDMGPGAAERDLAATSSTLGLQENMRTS
Sequence of UniProt Q9BY41 (whole entry, looked up): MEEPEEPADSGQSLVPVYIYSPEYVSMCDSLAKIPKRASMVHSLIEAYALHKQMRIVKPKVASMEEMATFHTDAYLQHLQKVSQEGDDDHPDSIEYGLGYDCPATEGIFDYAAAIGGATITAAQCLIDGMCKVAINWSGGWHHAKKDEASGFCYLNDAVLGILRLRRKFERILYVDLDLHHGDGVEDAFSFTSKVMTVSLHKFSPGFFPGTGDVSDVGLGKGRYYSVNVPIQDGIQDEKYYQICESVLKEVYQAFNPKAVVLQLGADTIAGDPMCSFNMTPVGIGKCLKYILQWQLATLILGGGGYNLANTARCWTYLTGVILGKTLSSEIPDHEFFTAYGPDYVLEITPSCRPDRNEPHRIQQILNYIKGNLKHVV
Sequence of UniProt Q96LA8 (whole entry, looked up): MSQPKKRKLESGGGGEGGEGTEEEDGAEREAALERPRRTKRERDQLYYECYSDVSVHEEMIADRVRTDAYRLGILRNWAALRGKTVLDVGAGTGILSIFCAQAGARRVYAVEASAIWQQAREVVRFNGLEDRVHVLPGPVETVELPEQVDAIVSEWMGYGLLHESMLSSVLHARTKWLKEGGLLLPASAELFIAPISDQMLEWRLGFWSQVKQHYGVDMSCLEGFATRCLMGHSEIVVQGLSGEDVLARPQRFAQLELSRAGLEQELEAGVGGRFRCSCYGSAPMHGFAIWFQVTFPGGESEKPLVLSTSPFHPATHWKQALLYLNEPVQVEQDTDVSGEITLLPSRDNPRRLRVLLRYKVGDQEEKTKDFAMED
Sequence of UniProt P11309 (whole entry, looked up): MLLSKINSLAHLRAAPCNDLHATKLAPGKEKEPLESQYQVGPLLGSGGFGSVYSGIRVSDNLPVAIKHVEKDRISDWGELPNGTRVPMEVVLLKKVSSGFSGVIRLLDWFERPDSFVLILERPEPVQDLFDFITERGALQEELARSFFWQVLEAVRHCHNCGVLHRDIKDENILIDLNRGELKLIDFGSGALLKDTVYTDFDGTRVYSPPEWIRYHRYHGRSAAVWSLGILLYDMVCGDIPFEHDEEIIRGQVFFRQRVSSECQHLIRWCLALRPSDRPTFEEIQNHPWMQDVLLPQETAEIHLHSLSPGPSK

O=C(COP(=O)(O)O)[C@@H](O)[C@H](O)[C@H](O)COP(=O)(O)O  thermal stability ratio (GLUD1 (Homo sapiens, UniProt P00367); thermal proteome profiling; HepG2 cell lysate; concentration not given, 57 over 37 °C; reference: compound over control): 2.75 and 2.43 and 7.1
C=CC(=O)c1ccc2ccccc2c1  potency reduction (Protein-glutamine gamma-glutamyltransferase (TGM2, Homo sapiens, UniProt P21980); enzyme activity, inhibitor; concentration not given, together with: DTT; reference: without DTT over with DTT): ~4000 fold
C=CC1=C(C)C2=Cc3c(C=C)c(C)c4[n]3[Fe]([Cl])[n]3c(c(C)c(CCC(=O)O)c3=CC3=NC(=C4)C(C)=C3CCC(=O)O)=CC1=N2  binding (T1, G-quadruplex RNA (Caenorhabditis elegans); UV-vis titration): binds
C=CC(=O)N1CCC(COCC(=O)N2CCN(c3nc(-c4cnc(N)nc4C(F)F)nc(N4CCOC[C@@H]4C)n3)CC2)CC1  remaining binding (Serine/threonine-protein kinase Nek1 (NEK1, Homo sapiens, UniProt Q96PY6); KINOMEscan; 1 µM): 90%
Nc1ncc2c(n1)-c1c([nH]c3ccc(-c4ccc(F)cc4)cc13)CCC2  remaining binding (Dual serine/threonine and tyrosine protein kinase (DSTYK, Homo sapiens, UniProt Q6XUX3); DiscoverX scanMAX; 1 µM; reference: untreated control): 23%
COc1cc(F)ccc1-c1ncnc(Nc2cccc(C[S@](C)(=N)=O)c2)n1  remaining activity (Serine/threonine-protein kinase pim-1 (PIM1, Homo sapiens, UniProt P11309); kinase activity; 10 µM, together with: 10 µM ATP): 103%
Cn1cc(C2CCCCC2)c2cc(CCOCCCCCc3ccccc3)ccc21  Emax (ATP2A2 (Sus scrofa, UniProt P11607); ATPase Vmax increase, activator; pig microsomes; 0.1 to 50 µM; reference: vehicle): 19 to 25%
NCCCC(=O)O  normalised MST signal (Sodium- and chloride-dependent taurine transporter (SLC6A6, Homo sapiens, UniProt P31641, G62A); binding, microscale thermophoresis; 61 nM, room temperature, together with: 50 nM labelled protein; higher = more binding): -0.0463
C(/C=C/c1sc2c3ccccc3ccc2[n+]1CCCc1ccccc1)=C1/Sc2c(ccc3ccccc23)N1CCCc1ccccc1.[I-]  Hill coefficient (Protein arginine N-methyltransferase 6 (PRMT6, Homo sapiens, UniProt Q96LA8); inhibitor, filter binding; together with: R4 peptide substrate): 0.99
O=C(CCCCCCC(=O)Nc1ccccc1)NO  binding stoichiometry (Histone deacetylase 8 (HDAC8, Homo sapiens, UniProt Q9BY41); ITC; Tris-HCl buffer; concentration not given, 283 K): 0.85
O=c1nc(SCc2cc(F)cc(C(F)(F)F)c2)nc(SCc2ccc3ccccc3n2)[nH]1  mean decatenated DNA (TOP2A; decatenation; 7.8 µM): 100%
CN(Cc1cnc2nc(N)nc(N)c2n1)c1ccc(C(=O)N[C@@H](CCC(=O)O)C(=O)O)cc1  uptake (Proton-coupled folate transporter (Homo sapiens, UniProt Q96NT5, del25-251); cells co-transfected with half-molecules; pH 5.5, 37 °C): 5.3%
Fc1ccc2c(-c3nnc(Cc4ccccc4)s3)nn(Cc3ccc(Cl)cc3Cl)c2c1  enzyme activity (Hexokinase-2 (HK2, Homo sapiens, UniProt P52789); ADP-Glo; 100 µM, 40 min; reference: DMSO): increased
Nc1nc2c(ncn2[C@@H]2O[C@H](COP(=O)(O)O)[C@@H](O)[C@H]2O)c(=O)[nH]1  reaction velocity (GUK1 (Homo sapiens, UniProt Q16774); enzyme activity, NADH-coupled; 7.812 µM, together with: NaCl 10 mM): 0.00298 µM/s and 0.0129 µM/s and 0.02 µM/s
Cc1nc(CSc2nc(SCc3ccc(C(F)(F)F)cc3)nc(=O)[nH]2)cs1  decatenated DNA (TOP2A; decatenation; 31.25 µM, replicate 1): 81.6%
O=C(O)c1ccc([N+](=O)[O-])cc1  current density (Bestrophin-2a (BEST2, Homo sapiens, UniProt Q8NFU1); whole-cell patch clamp; HEK293 transiently expressing channel; concentration not given, membrane potential -40 mV): -41 pA/pF and -147 pA/pF and -113 pA/pF and -103 pA/pF and -120 pA/pF
O=c1nc(SCc2cc(F)cc(C(F)(F)F)c2)nc(SCc2cccc(C(F)(F)F)c2)[nH]1  decatenated DNA (TOP2A; decatenation; 125 µM, replicate 2): 0%
CC(C)=CCC/C(C)=C/C=C/C(C)=C/C=C/C(C)=C/C=C/C=C(C)/C=C/C=C(C)/C=C/C=C(\C)CCC=C(C)C  number of binding sites (Beta-lactoglobulin (LGB, Bos taurus, UniProt P02754); fluorescence quenching; concentration not given, 298 K): 1.4
COc1cccc2c(-c3ccc(C)cc3)cc(C(=O)Nc3ccc(C(=O)O)cc3)nc12  antagonist activity (Retinoic acid receptor alpha (RARA, Homo sapiens, UniProt P10276); transactivation, antagonist, reporter gene; up to 3300 nM, together with: 9-cis-retinoic acid at EC80, 180 nM): inactive
Nc1ncnc2c1ncn2[C@@H]1O[C@H](COP(=O)(O)CP(=O)(O)OP(=O)(O)O)[C@@H](O)[C@H]1O  calcium influx (P2X purinoceptor 1 (P2RX1, Homo sapiens, UniProt P51575, R292A); calcium influx; 100 µM; reference: ionomycin response): 100%
N#Cc1ccc2c(-c3ccncc3)c(-c3ccc(F)cc3)nn2c1  log2 fold change (Mitogen-activated protein kinase MKC1 (MKC1, Candida albicans, UniProt P43068); kinase binding, competitor, MIB/MS competition, refers to: MKC1; Candida albicans cell lysate; 100 nM; reference: DMSO): 0.382
CC(C)c1ccc(CSc2nc(SCc3ccc4sccc4c3)[nH]c(=O)n2)cc1  decatenated DNA (TOP2A; decatenation; 31.25 µM, replicate 2): 0%
CC1CNCCN1S(=O)(=O)c1cccc2cnccc12 (centres unmarked)  decrease in channel activity (Sulfonylurea receptor 1, Kir6.2 (Homo sapiens, UniProt Q09428+Q14654); inside-out patch clamp; HEK293; 100 µM, 10 min, no MgADP): 22 ± 7%
NC(=O)c1ccc[n+]([C@@H]2O[C@H](COP(=O)([O-])OP(=O)(O)OC[C@H]3O[C@@H](n4cnc5c(NCCNC(=O)CCCCCNC(=O)CCCCCNC(=O)CCCC[C@@H]6SC[C@@H]7NC(=O)N[C@@H]76)ncnc54)[C@H](O)[C@@H]3O)[C@@H](O)[C@H]2O)c1  apparent Km (Protein mono-ADP-ribosyltransferase PARP10 (PARP10, Homo sapiens, UniProt Q53GL7); substrate, DELFIA auto-modification): 3 µM
COCCNc1nc2ccc(C#CC3(O)CCCCC3)cc2n1-c1ccnc(N)n1  remaining kinase activity (Tyrosine-protein kinase Fes/Fps (FES, Homo sapiens, UniProt P07332); enzyme activity, inhibitor, Z'-LYTE; 1 µM; reference: no-inhibitor control): 51%
O=c1nc(SCc2cc(F)cc(C(F)(F)F)c2)nc(SCc2nc3ccccc3[nH]2)[nH]1  decatenated DNA (TOP2A; decatenation; 125 µM, replicate 2): 0%
CCN1CCC[C@H]1CNC(=O)c1c(O)c(Cl)cc(Cl)c1OC  log2 fold change (G-protein coupled receptor 15 (Homo sapiens, UniProt P49685); β-arrestin recruitment, TANGO luminescence, refers to: GPR15; concentration not given; reference: basal luminescence): 0.153
O=c1nc(SCc2ccc(C(F)(F)F)cc2)nc(SCc2csc3ccc(Cl)cc23)[nH]1  relaxed DNA (TOP2A; DNA relaxation; 1.95 µM, replicate 1): 90.4%
COC(=O)C1CCN(C(=O)c2ccc(SCc3cnc4nc(N)nc(N)c4n3)nc2)CC1  partition index (Pteridine reductase 1 (Leishmania major, UniProt Q01782); hDHFR weight 10; reference: LmPTR1, LmDHFR over hDHFR, 1.0 selective, 0.0 non-selective): 0.99
Oc1ccccc1-c1n[nH]cc1-c1ccnc2ccccc12  log2 fold change (Casein kinase I HRR25 (Candida albicans, UniProt Q59S64); kinase binding, MIB/MS competition; Candida albicans lysate; 1 µM; reference: DMSO, negative = stronger binding): 0.1
Cc1nc(CSc2nc(SCc3cc(F)cc(C(F)(F)F)c3)nc(=O)[nH]2)cs1  decatenated DNA (TOP2A; decatenation; 15.6 µM, replicate 1): 98.9%
O=C(Nc1cccc2ncccc12)C1CCCN(S(=O)(=O)c2cccs2)C1 (centres unmarked)  SPR response (AASS, LKR domain (Homo sapiens, UniProt Q9UDR5); binding, surface plasmon resonance; 5 µM): 2.65 RU
